Assay results collected from several papers.
Every numbered part comes from another study and shows a few of its results, in no order. Changes are numbered by the printed parent chain.

Series 1 — technique: aptamer microarray, sandwich; molecule type: DNA with 2'F-ANA; medium: in vitro; tested at: 200 nM; added: Cy3 exosite-II aptamer, 400 nM; reading: higher = stronger binding; oligonucleotide: GGTTGGTGTGGTTGG
Target: Prothrombin, mature alpha-thrombin (F2, Homo sapiens, UniProt P00734)
Setting: whole 15-mer aptamer, many near background
Modification	mean fluorescence intensity
2'F-ANA at 2 3 6 7 11 12 13 15	812 a.u.
2'F-ANA at 1 5 6 8 9 10 14 15	52.3 a.u.
2'F-ANA at 1 3 4 7 8 9 13 15	157 a.u.
2'F-ANA at 1 6 8 9 10 13 14 15	52 a.u.
2'F-ANA at 2 5 6 10 11 12 13 14	55.3 a.u.
2'F-ANA at 4 9 13 14	195 a.u.
2'F-ANA at 1 4 6 8 9 10 11 12 15	54.6 a.u.
2'F-ANA at 1 2 6 7 8 10 12 13 14 15	53.3 a.u.
2'F-ANA at 1 2 3 4 5 9 11 13 14 15	47.6 a.u.
2'F-ANA at 2 5 6 7	73.1 a.u.
2'F-ANA at 3 5 8 11 12 15	195 a.u.
2'F-ANA at 1 3 7 9 10 12 14	59 a.u.
2'F-ANA at 5 7 13 14	43.6 a.u.
2'F-ANA at 4 6 7 8 9 11 13 14 15	73.8 a.u.
2'F-ANA at 3 5 6 9 11 12 13 14 15	71.7 a.u.
2'F-ANA at 2 5 7 8 9 10 12	50.7 a.u.
2'F-ANA at 4 5 10 11 12	52 a.u.
2'F-ANA at 1 3 4 7 8 12 13 14 15	158 a.u.
2'F-ANA at 1 2 3 9 10 11 12 13 15	83.5 a.u.
2'F-ANA at 1 3 6 7 8 9 10 12 14 15	66 a.u.
2'F-ANA at 1 2 4 6 7 10 12	58.9 a.u.
2'F-ANA at 1 2 4 6 7 8 14	53.9 a.u.
2'F-ANA at 2 11 14 15	127 a.u.
2'F-ANA at 1 4 5 13 14 15	44.3 a.u.
2'F-ANA at 3 6 10 11	475 a.u.

Series 2 — technique: RNA Bind-n-Seq; molecule type: RNA; medium: in vitro; tested at: 365 nM; reference: no-protein control; reading: higher = stronger binding
Target: RNA binding protein fox-1 homolog 2, RRM domain, GST-SBP tag (RBFOX2, Homo sapiens, UniProt O43251-10, residues 100-194)
Setting: natural RNA segment, single round, ends assumed
Constant ends, left off below: GGGAGUUCUACAGUCCGACGAUC … UGGAAUUCUCGGGUGCCAA
Target sequence (chain): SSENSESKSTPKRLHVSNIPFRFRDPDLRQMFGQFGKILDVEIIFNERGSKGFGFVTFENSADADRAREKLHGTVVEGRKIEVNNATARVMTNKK
Oligonucleotide	RBNS enrichment (R)
AGGGUUAUGAGCCUACUGGAUUGAGGUUAAAAUCCAAGAACCAACAUUUAGAGCUUUGUGCUUUUCUCUCAUUCCAUCACUUUGUAAUGAUGAUACUUAACAUGAGCAGG	0.438
CUUUUGGCGUGCAUAAGGAUCACUGUGUACACAUUGGCCAAGUGCUUCUGUAGAUAAUGUCUGUGGAGUAAAUAUUUGACAGGCCAGAACUUGAGUCUUUUGCCUUGCCU	0.988
GAAGGCUAUGCCAGGGAAUCUGGCUCAAAGCCUAACACAGAAGCAGCUUCAUCCCAGUGACGAUGCUGGACGUACAGAUGGUGAUGGCAAAGGUGUAGAACACAUUUUUU	0.274
CUCUGUCUCACUCCACCUCCUUAUCUGCCAGCAUUGCUGUUUCCUGCAAAGGAUUAUGGGAAACUCCAGGACUCUUCUACCCAGCUCCUGCCUGCAAAGGUUCCCUGCAU	0.394
AACAUUCAUAUGGCCAUUAAUUUUAACAUUAAAUCGUAGGUAGGGCAAUGUAGUAAAAUGAAAGAGAAUUAAGAAAGGUUUUGAAUUCUUAUAACAUAUCCAGCCAUUUC	0.847
AAGUUGGGCAUCACUUCGUCUUAGCAGUUAGUGGAUUACUGAUUACUAAAAUAGGUUAAUAGUAAGCAAGGUGCCGGUGUACAGUCUCUAACUCGAUCAGUGUCUUUUCA	0.316
CCUCGGCCUCCCAAAGUGCUGGGAUUAGAGGCGUGAGCCACUGCACCUGGCCUGUAGCAAAUAAUUUUUAAGCAUUCUCAAGAUGUAUGAUGUUGGGUUUAACAUCAUAU	0.323
CUGAGAGCAUCACUAUCAGGCAUGUGUUACCAAAAAACUGGCAGAAUCAGAAACUCAUUUACAUAAUGUAAAAGUGAAUCUAAAUAAAUCAUGAUUUAAACAGUCUAAAA	0.772
CCACUUUAAAGGACAAAAGCCAGAGCUCAGCUUUAUCCCUCUCCCAGUGCUGGGAGCCAAAAAACUGUUGACGGUUUUUUGUGCAGCUCAAGAAAACUUUGAAAAGAACA	0.468
GUUCUUUUAUAUGCUGUGUCCUUUUGGGGUUUGACCUUACCAAAGCAAAGAAACAAAAAACAAAAAAAACAAAAAAAAAAAAGGGUGCAAGAAAUGUGGAAAUCUGUCUG	1.04
AAUUAUAUUGGCCUCUCCUUAUGUGGUGGUUUUUUUGGUAGGUCAUAGUUCCUUAUACACAGACACCUGCAUCAUCGAAGGUCUUUUUUUCCUAAAAAAAAAAAAUGGGA	0.387
UGCCACACAGGGCAAUCCAGAUUUAGAUUAAAGAAAGGAUACACAGACAUUAAUCUGCAACAGGUCUUGUUCAUACUCAUAAAGUGUACCGUAUUAAGAAAUCAGAACAG	0.262

Series 3 — technique: RNA Bind-n-Seq; molecule type: RNA; medium: in vitro; tested at: 1 µM; setting: whole 134-nt RNA, ends assumed; added: 150 mM KCl; reference: input library; reading: higher = stronger binding
Target: Ras GTPase-activating protein-binding protein 1, RRM domain (G3BP1, Homo sapiens, UniProt Q13283)
Chain of UniProt Q13283 (whole entry, looked up): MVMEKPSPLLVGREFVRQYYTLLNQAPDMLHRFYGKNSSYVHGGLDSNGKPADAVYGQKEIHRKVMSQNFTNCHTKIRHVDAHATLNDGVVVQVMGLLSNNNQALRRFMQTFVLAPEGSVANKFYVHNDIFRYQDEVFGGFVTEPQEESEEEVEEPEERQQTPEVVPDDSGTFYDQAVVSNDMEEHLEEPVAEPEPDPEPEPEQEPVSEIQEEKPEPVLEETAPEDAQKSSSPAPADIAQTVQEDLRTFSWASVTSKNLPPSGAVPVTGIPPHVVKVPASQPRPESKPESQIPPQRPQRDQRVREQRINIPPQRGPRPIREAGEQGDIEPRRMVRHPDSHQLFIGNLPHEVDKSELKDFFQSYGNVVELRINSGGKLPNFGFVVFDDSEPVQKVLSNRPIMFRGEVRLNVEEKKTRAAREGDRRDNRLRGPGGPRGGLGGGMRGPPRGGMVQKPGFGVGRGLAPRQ
Constant ends, left off below: GGGAGUUCUACAGUCCGACGAUC … UGGAAUUCUCGGGUGUCAAGG
Oligonucleotide	log2 enrichment
AAGUCCUGUGCUACACAUCGUAUGUACCGAAUCGGGGAAAAGGAAAAGGAAAAGGGGAAAGUAUUAUGUUACGCCGUUCGGAUCUGCACU	-0.106
AAGUCCUGUGCUACACAUCGUAUGUACCGAAUCAAAUUUAAAUUUUUAAACCCAAAAAAGUAUUAUGUUACGCCGUUCGGAUCUGCACUU	-1.06
CAAGUCCUGUGCUACACAUCGUAUGUACCGAAUCGGGCCCCGGCCCCGGGCCCCGGAAAGUAUUAUGUUACGCCGUUCGGAUCUGCACUU	-0.923
UAACUUUAGACGAGGAUCUGAUGGAUAUGGCAGUGGACGUGGAUUUGGGGAUGGCUAUAAUGGGUAUGGAGGAGGACCUGGAGGUGGCAA	-0.89
UGGCCCUGGUGGCAUGCGGGGAGGAAGAGGUGGCCUCAUGGAUCGUGGUGGUCCCGGUGGAAUGUUCAGAGGUGGCCAUGGUGGAGACAG	1.15
UCCUCAAGUCCUGUGCUACACAUCGUAUGUACCGAAUCGGAAAGGUGGAGGAAAGUAUUAUGUUACGCCGUUCGGAUCUGCACUUCCAGC	-0.233
AAGUCCUGUGCUACACAUCGUAUGUACCGAAUCGGUUUUGGGGUUUUGGUUUUGGGGAAAGUAUUAUGUUACGCCGUUCGGAUCUGCACU	-0.256
UGGGAGGUGGAUUUUGUUUAUUUUUUUAGCUCCUUUCCAGGGGUGGGAAUUUUUUUUUAAUAUGUGUCAUGAAUAAAGUUGUUUUUGAAA	1.59
ACCAUGCAGGUGGGCAUCUUUGGGAAGUGGGGCAAGGGGAGGAUAGGGAGGGGGGUAACACUUUGGGAACAGGUGGUCCCAGGUCGUUUC	-0.468
UGUGCUACACAUCGUAUGUACCGAAUCGGGGAAAAAAAGGGGUUUUUGGGGAAAAAAAGGGGAAAGUAUUAUGUUACGCCGUUCGGAUCU	1.33
UGGCCCUGGUGGCAUGCGGGGAGGAAGAGGUGGCCUCAUGGAUCGUGGUGGUCCCGGUGGAAUUUUCAGAGGUGGCCGUGGUGGAGACAG	0.383
AAGUCCUGUGCUACACAUCGUAUGUACCGAAUCGGGUUUUUUUGGGAGGGUUUGGGAAAGUAUUAUGUUACGCCGUUCGGAUCUGCACUU	0.156
AAGUCCUGUGCUACACAUCGUAUGUACCGAAUCGGGUUUUUGGGAGGGUUUUUGGGAAAGUAUUAUGUUACGCCGUUCGGAUCUGCACUU	0.388
UCAAGUCCUGUGCUACACAUCGUAUGUACCGAAUCGGUGGUUUGGAAAAAAAGGAAAGUAUUAUGUUACGCCGUUCGGAUCUGCACUUCC	-0.109

Series 4 — target: CCNB3, cyclin fold, Cln2 fusion (human); technique: yeast growth competition, sequencing; medium: yeast; setting: strong parent motif; reference: not given; reading: higher = stronger binding
Starting sequence: E2F1 docking peptide (human); PPVKRRLDFETDH; partner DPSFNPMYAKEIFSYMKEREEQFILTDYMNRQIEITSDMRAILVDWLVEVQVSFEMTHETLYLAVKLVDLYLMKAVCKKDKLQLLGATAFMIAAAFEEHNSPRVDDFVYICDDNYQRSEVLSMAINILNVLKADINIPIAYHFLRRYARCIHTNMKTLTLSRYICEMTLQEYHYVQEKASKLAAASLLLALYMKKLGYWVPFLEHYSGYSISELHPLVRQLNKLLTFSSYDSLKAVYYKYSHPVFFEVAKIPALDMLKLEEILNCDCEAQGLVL
Change	normalised enrichment score
V3S	0.31
V3E	-0.0383
P2M	1.48
D12Q	2.87
D8R	1.41
D8E	2.29
T11F	2.96
P2N	2.5
P2L	1.6
D8C	3.21
R6A	0.73
R6E	0.0418
P2R	2.41
K4D	0.0659
D8G	0.403
F9V	0.14
F9A	0.0733
D8L	2.54
F9C	-0.137
K4F	1.66
D12N	3.04
P2F	1.57
F9Q	0.549
D8N	3.44
D8K	2.29

Series 5 — technique: protein binding microarray; molecule type: double-stranded DNA, one strand shown; medium: in vitro; tested at: not given; reference: not given; reading: higher = stronger binding
Target: Histone acetyltransferase KAT6A, winged helix 1, GST fusion (KAT6A, Homo sapiens, UniProt Q92794, residues 1-85)
Setting: 8-mer, flanks averaged, mean of 2 arrays, mostly near background
Residues (chain): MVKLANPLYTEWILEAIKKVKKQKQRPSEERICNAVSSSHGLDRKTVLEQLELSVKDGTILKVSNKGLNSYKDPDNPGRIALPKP
Oligonucleotide	E-score
AAGTTAGG	-0.129
CTACTGTC	0.0104
AATTGTAA	0.0141
CTACATTA	-0.111
CGAAATTA	-0.0937
GTCTAACA	-0.0173
ACGTCGCT	0.151
TAACTACA	-0.074
GTTACGCA	0.25
ACTAGTAA	-0.0676
ATAGTGAA	-0.176
CCAATGCG	0.161
ATACACTC	-0.108
ACTTGCCT	-0.239
GGGATCAC	-0.0295
AGGTGTAG	-0.0134
CTCGCGCC	0.328
CAATAGAG	-0.184
GACAACCC	-0.0658

Series 6 — technique: Sort-seq; measured: YFP reporter; medium: E. coli; setting: PhoQ-PhoP variant library; added: 10 µM Mg2+; reference: high Mg2+ state; reading: higher = stronger signaling
Substance: PhoQ, residues 284 288 289 292 302 303 ALSMDL
target	fold induction
PhoP, residues 12 14 15 18 19 TQCLL (Escherichia coli, UniProt P23836)	5.06
PhoP, residues 12 14 15 18 19 VHTVL (Escherichia coli, UniProt P23836)	1.96
PhoP, residues 12 14 15 18 19 ICWRQ (Escherichia coli, UniProt P23836)	11.8

For quick reference, copied from above (series 3):
Oligonucleotide	log2 enrichment
UGGGAGGUGGAUUUUGUUUAUUUUUUUAGCUCCUUUCCAGGGGUGGGAAUUUUUUUUUAAUAUGUGUCAUGAAUAAAGUUGUUUUUGAAA	1.59
UGUGCUACACAUCGUAUGUACCGAAUCGGGGAAAAAAAGGGGUUUUUGGGGAAAAAAAGGGGAAAGUAUUAUGUUACGCCGUUCGGAUCU	1.33
UGGCCCUGGUGGCAUGCGGGGAGGAAGAGGUGGCCUCAUGGAUCGUGGUGGUCCCGGUGGAAUGUUCAGAGGUGGCCAUGGUGGAGACAG	1.15
UCAAGUCCUGUGCUACACAUCGUAUGUACCGAAUCGGUGGUUUGGAAAAAAAGGAAAGUAUUAUGUUACGCCGUUCGGAUCUGCACUUCC	-0.109
AAGUCCUGUGCUACACAUCGUAUGUACCGAAUCGGUUUUGGGGUUUUGGUUUUGGGGAAAGUAUUAUGUUACGCCGUUCGGAUCUGCACU	-0.256
CAAGUCCUGUGCUACACAUCGUAUGUACCGAAUCGGGCCCCGGCCCCGGGCCCCGGAAAGUAUUAUGUUACGCCGUUCGGAUCUGCACUU	-0.923
AAGUCCUGUGCUACACAUCGUAUGUACCGAAUCGGGGAAAAGGAAAAGGAAAAGGGGAAAGUAUUAUGUUACGCCGUUCGGAUCUGCACU	-0.106
AAGUCCUGUGCUACACAUCGUAUGUACCGAAUCGGGUUUUUUUGGGAGGGUUUGGGAAAGUAUUAUGUUACGCCGUUCGGAUCUGCACUU	0.156
ACCAUGCAGGUGGGCAUCUUUGGGAAGUGGGGCAAGGGGAGGAUAGGGAGGGGGGUAACACUUUGGGAACAGGUGGUCCCAGGUCGUUUC	-0.468
AAGUCCUGUGCUACACAUCGUAUGUACCGAAUCAAAUUUAAAUUUUUAAACCCAAAAAAGUAUUAUGUUACGCCGUUCGGAUCUGCACUU	-1.06
